Measurements pooled from the literature.
Protocols differ between the studies behind these lines. “And” joins repeats or separate records; there may be more than shown. ± gives the spread as reported.

Compound	cell line	test	setting	scale	measurement	result
O=c1cc(-c2ccc(O)cc2)oc2cc(O)cc(O)c12	SH-SY5Y Aβ-GFP cells, TRKB shRNA	–	5 µM	–	neurite process number	3.3
C[C@@H]1O[C@@H](O[C@H]2C[C@@H](O)[C@]3(CO)[C@H]4[C@H](O)C[C@]5(C)[C@@H](C6=CC(=O)OC6)CC[C@]5(O)[C@@H]4CC[C@]3(O)C2)[C@H](O)[C@H](O)[C@H]1O	MYBPC3 iPSC cardiomyocytes	plate-normalised	concentration not given, 24 h, hit retest	–	MyBP-C level	13.9%
Nc1ncnc2c1ncn2[C@@H]1O[C@@H]2COP(=O)(O)O[C@H]3[C@@H](O)[C@H](n4cnc5c(=O)[nH]cnc54)O[C@@H]3COP(=O)(O)O[C@H]2[C@H]1O	HFF-1	RNA sequencing, refers to: Reactome Immune System	upregulated pathways	relative to: mock	fold enrichment	2.85
Cn1cc2cc(C(F)(F)c3nnc4ccc(-c5cnn(C6CC6)c5)nn34)c(F)cc2n1	MKN-45	annexin V/PI flow cytometry	2 nM, 48 h	–	late apoptotic cells	7.35% and 12.4% and 14.2%
CC(C)N1CCC(NC2CCN(c3cccc(-c4cc5cc(F)ccc5[nH]4)c3)CC2)CC1	SF-268	–	–	–	GI50	1.53 µM
COc1cc(CCC[P+](c2ccccc2)(c2ccccc2)c2ccccc2)c(OC)c2c1OCO2.[I-]	HT-29	SRB	–	–	GI50	-6.09 log M
O=C([O-])CN1CCN(CC(=O)[O-])CCN(CC(=O)NCC2CCC(C(=O)N[C@@H](Cc3ccc4ccccc4c3)C(=O)NCCCC[C@H](NC(=O)N[C@@H](CCC(=O)O)C(=O)O)C(=O)O)CC2)CCN(CC(=O)[O-])CC1.[177Lu+3] (stereo partly drawn)	22Rv1	–	24 h	relative to: added dose	uptake	4.78 ± 0.35%
CCN(CC)c1ccc(C=NNC(=O)CSc2nc3ccccc3c(=O)n2Cc2ccc(S(N)(=O)=O)cc2)c(O)c1	SF-295	NCI five-dose screen	–	–	CC50	> 100 µM
COc1ccc([C@H]2c3[nH]c4ccc(Cl)cc4c3CCN2C(=O)Oc2ccc(Cl)cc2)cc1	HUVEC and PBMC co-culture	BioMAP SAg, refers to: IL-8	0.1 µM, 24 h, together with: TCR ligands	–	inhibition	29%
Oc1cc(Cl)ccc1Oc1ccc(Cl)cc1Cl	HepG2	high content imaging, refers to: nuclear size	24 h, distribution mode 2	–	point of departure	32.4 µM and 33.1 µM
C/C=C(/C)C(=O)O[C@H]1C(C)=C2[C@H]([C@@H]1OC(=O)CCCCCCC)[C@@](C)(OC(C)=O)C[C@H](OC(=O)CCC)[C@@]1(O)[C@H]2OC(=O)[C@@]1(C)O	HEK-293T	RNA-seq GSEA, refers to: Hallmark xenobiotic metabolism	500 nM, 6 h	direction not given	normalized enrichment score	1.53
COc1c(CCC[P+](c2ccccc2)(c2ccccc2)c2ccccc2)cc2c(c1OC)OCO2.[I-]	NCI-H460	SRB	–	–	LC50	-4.71 log M
O=C1CCP(=S)(c2ccccc2)CC1	SW480	ELISA	concentration not given, at IC50	relative to: untreated	IL-6 reduction	71.8%
Cn1ncc(-c2nc(N[C@H]3CC[C@H](N)CC3)ncc2Cl)c1CC1CC1	human AML cell lines	immunoblot, refers to: Ser2 and Ser5	100 nM, 24 h	–	RNA polymerase II CTD phosphorylation	decreased
C[C@@H]1C[C@@H]([C@H](O)CC2CC(=O)NC(=O)C2)C(=O)[C@@H](C)C1	LDR	silenced CMV-GFP reporter derepression, qHTS	–	–	EC50	1.58 µM
Cc1cc(C(C)(C)c2ccc(O)c(C)c2)ccc1O	HepG2 spheroids	Hoechst flow cytometry	10 µM, 96 h	–	G2 phase cells	23 ± 4.31%
CN1CCN(C2(CNC3CCN(c4cccc(-c5cc6cc(F)ccc6[nH]5)c4)CC3)CCC2)CC1	SF-268	–	–	–	CC50	6.6 µM
Cn1cncc1C1=CN(c2ncnc3[nH]cnc23)CCS1	SF-295	–	CNS cancer	–	CC50	> 200 µM
Oc1ccc(C2(c3ccc(O)cc3)c3ccccc3-c3ccccc32)cc1	HepG2 spheroids	cell proliferation, flow cytometry, refers to: Ki67	40 µM, 24 h	relative to: solvent control	inhibition	15.4%
COc1ccc([C@@H](O)c2cc(-c3ncnc4cc(N5CCOCC5)ccc34)c(F)cc2Cl)nn1	M12	–	300 nM, together with: radiation 2.5 Gy	–	clonogenic survival	4 ± 0.4%
COc1ccc2c(c1)[nH]c1c(C)nccc12	DU-145	bisulfite pyrosequencing, refers to: RASSF1A promoter CpG site 20	concentration not given	relative to: vehicle	methylation reduction	1.64%

Excerpt of the above:
Compound	cell line	test	setting	scale	measurement	result
Cn1cncc1C1=CN(c2ncnc3[nH]cnc23)CCS1	SF-295	–	CNS cancer	–	CC50	> 200 µM
Oc1ccc(C2(c3ccc(O)cc3)c3ccccc3-c3ccccc32)cc1	HepG2 spheroids	cell proliferation, flow cytometry, refers to: Ki67	40 µM, 24 h	relative to: solvent control	inhibition	15.4%
COc1ccc([C@@H](O)c2cc(-c3ncnc4cc(N5CCOCC5)ccc34)c(F)cc2Cl)nn1	M12	–	300 nM, together with: radiation 2.5 Gy	–	clonogenic survival	4 ± 0.4%
